Assay results collected from several papers.
± marks the error that the study gave. In brackets after ≈: the same amount, converted by molar mass.

CC[C@H](C)[C@H](NC(=O)[C@H](CCCCN)NC(=O)[C@H](CCCCN)NC(=O)[C@H](CC(C)C)NC(=O)[C@H](CCCCN)NC(=O)[C@H](CCC(=O)O)NC(=O)[C@H](CCCCN)NC(=O)[C@@H](NC(=O)[C@H](CCCCN)NC(=O)[C@H](CC(N)=O)NC(=O)[C@H](CCCNC(=N)N)NC(=O)[C@H](Cc1ccccc1)NC(=O)[C@H](CCCCN)NC(=O)[C@H](CCCNC(=N)N)NC(=O)[C@H](CC(C)C)NC(=O)[C@H](CCCNC(=N)N)NC(=O)[C@H](CCCCN)NC(=O)[C@H](CCCNC(=N)N)NC(=O)[C@@H](N)CC(C)C)[C@@H](C)CC)C(=O)NCC(=O)N[C@@H](CCC(N)=O)C(=O)N[C@@H](CCCCN)C(=O)N[C@H](C(=O)N[C@@H](CCC(N)=O)C(=O)NCC(=O)N[C@@H](Cc1ccccc1)C(=O)N[C@H](C(=O)N1CCC[C@H]1C(=O)N[C@@H](CCCCN)C(=O)N[C@@H](CC(C)C)C(=O)O)C(C)C)[C@@H](C)CC  lethal concentration (Micrococcus luteus; inhibition zone; CGMCC 1.029): 0.9 µM
CCCCCCCCCCCCCC(=O)N[C@@H](CCCNC(=N)N)C(=O)N[C@@H](CCCNC(=N)N)C(=O)N[C@@H](CCCNC(=N)N)C(N)=O  MIC range (Staphylococcus epidermidis and Staphylococcus aureus; clinical strains): 1.56 to 3.1 µM (≈ 1.09 to 2.16 µg/mL)
CS(=O)(=O)c1ccc(/C=N/NC(=O)Cn2ccc(=O)c3ccccc32)cc1  inhibition (Alternaria solani; microbial growth; 50 µg/mL): 30.8%
CC[C@H](C)[C@H](NC(=O)[C@H](CCCCN)NC(=O)[C@H](CCCCN)NC(=O)[C@H](CC(C)C)NC(=O)[C@H](CCCCN)NC(=O)[C@H](CCC(=O)O)NC(=O)[C@H](CCCCN)NC(=O)[C@@H](NC(=O)[C@H](CCCCN)NC(=O)[C@H](CC(N)=O)NC(=O)[C@H](CCCNC(=N)N)NC(=O)[C@H](Cc1ccccc1)NC(=O)[C@H](CCCCN)NC(=O)[C@H](CCCNC(=N)N)NC(=O)[C@H](CC(C)C)NC(=O)[C@H](CCCNC(=N)N)NC(=O)[C@H](CCCCN)NC(=O)[C@H](CCCNC(=N)N)NC(=O)[C@H](CC(C)C)NC(=O)CN)[C@@H](C)CC)C(=O)NCC(=O)N[C@@H](CCC(N)=O)C(=O)N[C@@H](CCCCN)C(=O)N[C@H](C(=O)N[C@@H](CCC(N)=O)C(=O)NCC(=O)N[C@@H](Cc1ccccc1)C(=O)N[C@H](C(=O)N1CCC[C@H]1C(=O)N[C@@H](CCCCN)C(=O)N[C@@H](CC(C)C)C(=O)N[C@@H](C)C(=O)N1CCC[C@H]1C(=O)N[C@@H](CCCNC(=N)N)C(=O)N[C@H](C(=O)N[C@@H](CC(=O)O)C(=O)N[C@@H](Cc1ccc(O)cc1)C(=O)O)[C@@H](C)O)C(C)C)[C@@H](C)CC  lethal concentration (Salmonella; inhibition zone; DZ.3G; LB agar, overnight): 1.94 µM
CCCCCCCCCCCCCC(=O)N[C@H](CCN)C(=O)N[C@@H]1C(=O)N[C@@H](CCN)C(=O)N[C@@H](CC(C)C)C(=O)N[C@@H](CCN)C(=O)N[C@H](Cc2ccccc2)C(=O)N[C@@H](CC(C)C)C(=O)N[C@@H](CCN)C(=O)N[C@H](CCN)C(=O)N[C@@H](C(C)C)C(=O)N[C@@H](CC(=O)O)C(=O)O[C@@H]1C  reduction in bacterial burden (Neisseria gonorrhoeae; ATCC 31426, neutropenic mice, vaginal infection; subcutaneous, 20 mg/kg/day, 3 days): 2.83 log10 CFU
[Ag+].[S-]c1ccccn1.c1ccc(P(c2ccccc2)c2ccccc2)cc1.c1ccc(P(c2ccccc2)c2ccccc2)cc1  inhibition zone diameter (Candida albicans; MTCC 227, DMSO; 0.1 mL of 50 mg/mL in 8 mm well, 18 to 24 h): 18 mm
O=C(C=CC(Cc1ccccc1)Nc1ccnc2cc(Cl)ccc12)NCCN1CCOCC1 (stereo not shown)  survival rate (Plasmodium berghei; NK65, ICR mouse; 20 mg/kg once daily, 6 days post-infection): 60%
CC(=O)OC1C(C)C(OC2CC3OCOC3C(C)O2)C=COC2(C)Oc3c(C)c(O)c4c(c3C2=O)C(=O)C=C(NC(=O)C(C)=CC=CC(C(C)OC(=O)C(C)(C)CC(=O)O)C(O)C(C)C(O)C1C)C4=O (stereo not shown)  growth inhibition (Bacillus subtilis; rifampicin-resistant rpoB H482R; concentration not given): inhibited
Nc1ccn(C[C@@H](CO)OCP(=O)(O)OCCCS(=O)(=O)CCCCCCCCCCCCC2CCC2)c(=O)n1  selectivity index (human adenovirus 5; cytopathic effect; Adenoid 75; baseline: CC50 over EC50): 84
[O-][N+]1=C(c2ccsc2)C2=NCCCN2c2ccccc21  MIC (Fusobacterium nucleatum; microbial growth; ATCC25586): 0.125 µg/mL (≈ 0.441 µM)
CC[C@H](C)[C@H](NC(=O)[C@H](CCCCN)NC(=O)[C@H](CCCCN)NC(=O)[C@H](CC(C)C)NC(=O)[C@H](CCCCN)NC(=O)[C@H](CCC(=O)O)NC(=O)[C@H](CCCCN)NC(=O)[C@@H](NC(=O)[C@H](CCCCN)NC(=O)[C@H](CC(N)=O)NC(=O)[C@H](CCCNC(=N)N)NC(=O)[C@H](Cc1ccccc1)NC(=O)[C@H](CCCCN)NC(=O)[C@H](CCCNC(=N)N)NC(=O)[C@H](CC(C)C)NC(=O)[C@H](CCCNC(=N)N)NC(=O)[C@H](CCCCN)NC(=O)[C@H](CCCNC(=N)N)NC(=O)[C@H](CC(C)C)NC(=O)[C@@H](N)CC(C)C)[C@@H](C)CC)C(=O)NCC(=O)N[C@@H](CCC(N)=O)C(=O)N[C@@H](CCCCN)C(=O)N[C@H](C(=O)N[C@@H](CCC(N)=O)C(=O)NCC(=O)N[C@@H](Cc1ccccc1)C(=O)N[C@H](C(=O)N1CCC[C@H]1C(=O)N[C@@H](CCCCN)C(=O)N[C@@H](CC(C)C)C(=O)N[C@H](C(=O)N1CCC[C@H]1C(=O)N[C@@H](CCCNC(=N)N)C(=O)N[C@H](C(=O)N[C@@H](CCC(=O)O)C(=O)N[C@@H](CO)C(=O)O)[C@@H](C)O)C(C)C)C(C)C)[C@@H](C)CC  lethal concentration (Streptomyces griseus; inhibition zone; NBRC 13350; 37 °C, LB agar, 154 mM NaCl): 5.68 µM
CN[C@@H]1[C@H](O)[C@H](NC)[C@H]2O[C@]3(O)[C@H](O[C@@H]2[C@H]1O)O[C@H](C)C[C@@]3(O)CNCc1ccc(OC(F)(F)F)cc1  inhibition zone diameter (Neisseria gonorrhoeae; ATCC 49226; 40 µg per disc): 16 to 20 mm
COCCNc1nc(C(=O)NCc2ccc(F)cc2)c(O)c2ncccc12  inhibition (Human betaherpesvirus 5; viral replication, inhibitor; HFF; 10 µM): 21%
CC(C)C[C@H](NC(=O)[C@H](CC(=O)O)NC(=O)[C@H](CC(C)C)NC(=O)[C@H](CC(=O)O)NC(=O)CNC(=O)[C@@H]1CCCN1C(=O)[C@H](CCCCN)NC(=O)[C@H](CC(C)C)NC(=O)[C@H](Cc1c[nH]c2ccccc12)NC(=O)[C@@H]1CCCN1)C(=O)O  viral RNA reduction (dengue virus 2; RT-qPCR; LLC-MK2, New Guinea C; maximal non-toxic, 24 h; baseline: untreated): 28.6 ± 16.3%
COc1ccc2c(c1)/C(=N\Nc1nnc3n1N=C(c1ccccc1)CS3)C(=O)N2  capillary number reduction (Gallus gallus; angiogenesis, HET-CAM; chorioallantoic membrane; 40 µM, day 11; baseline: DMSO control): 56%
CC[C@H](C)[C@H](NC(=O)[C@H](Cc1ccc(O)cc1)NC(=O)[C@H](CCCCN)NC(=O)[C@H](CCCCN)NC(=O)[C@H](CCC(N)=O)NC(=O)[C@H](C)N)C(=O)N[C@@H](CO)C(=O)N[C@@H](Cc1ccc(O)cc1)C(=O)NCC(=O)N[C@@H](C)C(=O)N[C@@H](CCSC)C(=O)N[C@@H](CCCNC(=N)N)C(=O)N[C@@H](CCCNC(=N)N)C(=O)N[C@@H](CC(N)=O)C(=O)N[C@@H](CO)C(=O)N[C@H](C(=O)N1CCC[C@H]1C(=O)N[C@H]1CSSC[C@@H](C(=O)N[C@@H](CCC(N)=O)C(=O)N[C@@H](CCCNC(=N)N)C(=O)NCC(=O)N[C@@H](C)C(=O)N[C@@H](CCC(N)=O)C(=O)N[C@@H](C)C(=O)N[C@@H](CC(N)=O)C(=O)N2CCC[C@H]2C(=O)N[C@@H](Cc2ccc(O)cc2)C(=O)N[C@@H](CO)C(=O)N[C@@H](CCCNC(=N)N)C(=O)NCC(=O)N[C@H]2CSSC[C@@H](C(=O)N[C@@H](CCCNC(=N)N)C(=O)N[C@@H](CCCNC(=N)N)C(=O)O)NC(=O)[C@H](CCCNC(=N)N)NC(=O)[C@H]([C@@H](C)O)NC(=O)[C@H]([C@@H](C)CC)NC(=O)[C@H]([C@@H](C)O)NC(=O)[C@H](CO)NC2=O)NC(=O)[C@H](CC(N)=O)NC(=O)[C@H](Cc2ccc(O)cc2)NC(=O)[C@H](Cc2ccc(O)cc2)NC(=O)[C@H](CO)NC(=O)[C@H](C)NC(=O)CNC(=O)[C@H](CCCNC(=N)N)NC(=O)[C@H](CCCNC(=N)N)NC(=O)[C@H](CO)NC1=O)C(C)C  extracellular pH increase (Arabidopsis thaliana; FITC/TRITC ratio imaging; fer-4, root hairs; 5 µM): 0.48
CN[C@@H]1[C@H](O)[C@H](NC)[C@H]2O[C@]3(O)[C@H](O[C@@H]2[C@H]1O)O[C@H](C)C[C@@]3(O)CNCc1ccc(Cl)cc1  inhibition zone diameter (Neisseria gonorrhoeae; ATCC 49226; 40 µg per disc): 20 to 22 mm
COC1=CC(c2ccc[nH]2)=NC1=CNC1CCCCCCC1  selectivity index (Plasmodium falciparum; HepG2, D6; baseline: HepG2 IC50 over D6 IC50): 2020
CC[C@H](C)[C@H](NC(=O)[C@H](Cc1c[nH]c2ccccc12)NC(=O)[C@H](CCCNC(=N)N)NC(=O)[C@H](CCC(N)=O)NC(=O)[C@@H](NC(=O)[C@H](Cc1c[nH]c2ccccc12)NC(=O)[C@H](CCCNC(=N)N)NC(=O)[C@H](CCCNC(=N)N)NC(=O)[C@H](C)NC(=O)[C@H](C)NC(=O)[C@H](C)NC(=O)[C@@H](NC(=O)[C@H](CCCCN)NC(=O)[C@@H]1CCCN1C(=O)[C@H](CCCNC(=N)N)NC(=O)[C@H](Cc1c[nH]c2ccccc12)NC(=O)[C@H](CCCNC(=N)N)NC(=O)[C@H](CCCNC(=N)N)NC(=O)[C@@H](NC(=O)[C@H](Cc1c[nH]c2ccccc12)NC(=O)[C@H](CCCNC(=N)N)NC(=O)[C@H](CCC(N)=O)NC(=O)[C@@H](NC(=O)[C@H](Cc1c[nH]c2ccccc12)NC(=O)[C@H](CCCNC(=N)N)NC(=O)[C@@H](N)CCCNC(=N)N)C(C)C)[C@@H](C)CC)C(C)C)C(C)C)C(=O)N[C@@H](CCCNC(=N)N)C(=O)N[C@@H](CCCNC(=N)N)C(=O)N[C@@H](Cc1c[nH]c2ccccc12)C(=O)N[C@@H](CCCNC(=N)N)C(=O)N1CCC[C@H]1C(=O)N[C@@H](CCCCN)C(=O)N[C@H](C(N)=O)C(C)C  concentration for viability loss (Malassezia furfur; DTO 383-D9; 3 h): 0.6 µM
